Results from different studies.
Protocols differ between the studies behind these lines.
OPRL1: Nociceptin receptor (OPRL1, Homo sapiens, UniProt P41146)

Chains of the proteins cited; added tags and fusions are not shown. Residues count along the entry.
UniProt P41146, whole entry: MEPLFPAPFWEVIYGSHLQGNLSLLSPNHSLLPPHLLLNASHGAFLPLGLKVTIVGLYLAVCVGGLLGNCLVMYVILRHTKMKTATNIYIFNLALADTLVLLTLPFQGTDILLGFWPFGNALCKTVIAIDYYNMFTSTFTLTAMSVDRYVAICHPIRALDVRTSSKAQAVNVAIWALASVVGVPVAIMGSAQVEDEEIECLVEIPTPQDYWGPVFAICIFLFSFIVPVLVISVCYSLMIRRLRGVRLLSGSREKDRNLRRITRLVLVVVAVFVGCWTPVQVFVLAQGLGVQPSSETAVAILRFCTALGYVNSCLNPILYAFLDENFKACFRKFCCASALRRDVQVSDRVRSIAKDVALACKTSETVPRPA
UniProt P37136, 32-574 limits assumed: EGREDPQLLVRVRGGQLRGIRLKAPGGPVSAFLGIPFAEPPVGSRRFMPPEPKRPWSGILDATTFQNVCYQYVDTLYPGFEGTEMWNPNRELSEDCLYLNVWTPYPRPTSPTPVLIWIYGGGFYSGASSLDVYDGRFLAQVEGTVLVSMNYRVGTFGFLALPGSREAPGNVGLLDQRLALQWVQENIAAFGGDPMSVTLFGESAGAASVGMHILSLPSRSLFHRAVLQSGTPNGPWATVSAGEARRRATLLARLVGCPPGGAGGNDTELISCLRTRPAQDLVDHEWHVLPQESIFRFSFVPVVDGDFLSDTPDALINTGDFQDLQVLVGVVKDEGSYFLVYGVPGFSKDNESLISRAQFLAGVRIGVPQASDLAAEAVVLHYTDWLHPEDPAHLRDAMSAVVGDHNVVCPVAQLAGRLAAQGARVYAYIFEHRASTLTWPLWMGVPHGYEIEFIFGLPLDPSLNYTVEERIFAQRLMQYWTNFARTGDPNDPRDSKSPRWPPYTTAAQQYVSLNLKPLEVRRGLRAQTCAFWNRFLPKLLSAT
UniProt P59768, 2-68 partner limits assumed: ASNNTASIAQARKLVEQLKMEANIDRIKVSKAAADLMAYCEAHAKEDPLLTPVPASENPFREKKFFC
UniProt P63096, 2-354 partner limits assumed: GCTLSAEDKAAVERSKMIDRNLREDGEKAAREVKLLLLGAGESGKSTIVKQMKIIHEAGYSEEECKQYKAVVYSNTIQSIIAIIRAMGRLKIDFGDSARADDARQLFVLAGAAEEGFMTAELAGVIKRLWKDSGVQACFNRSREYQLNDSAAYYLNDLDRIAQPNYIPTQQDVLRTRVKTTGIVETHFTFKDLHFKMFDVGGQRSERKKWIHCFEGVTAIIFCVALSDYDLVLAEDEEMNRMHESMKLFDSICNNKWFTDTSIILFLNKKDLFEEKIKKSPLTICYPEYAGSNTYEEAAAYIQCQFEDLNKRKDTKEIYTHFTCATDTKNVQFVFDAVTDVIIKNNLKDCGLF
UniProt P62873, whole entry partner: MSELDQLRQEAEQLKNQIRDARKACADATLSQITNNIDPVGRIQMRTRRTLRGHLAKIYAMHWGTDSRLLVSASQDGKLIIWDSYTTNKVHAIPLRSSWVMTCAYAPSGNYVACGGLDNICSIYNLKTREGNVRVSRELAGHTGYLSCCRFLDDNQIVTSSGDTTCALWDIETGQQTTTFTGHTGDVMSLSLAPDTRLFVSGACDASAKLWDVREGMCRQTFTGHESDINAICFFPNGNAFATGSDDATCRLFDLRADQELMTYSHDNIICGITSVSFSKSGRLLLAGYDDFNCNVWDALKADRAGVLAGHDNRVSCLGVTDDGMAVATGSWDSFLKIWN

| Compound | target or system | assay | test system | setting | scale | quantity | result |
| --- | --- | --- | --- | --- | --- | --- | --- |
| CC[C@H](C)[C@H](NC(=O)[C@H](C)NC(=O)[C@H](CCC(=O)O)NC(=O)[C@H](CCC(=O)O)NC(=O)[C@H](CC(C)C)NC(=O)[C@H](CCCCN)NC(=O)[C@H](CCCCN)NC(=O)[C@H](CCSC)NC(=O)[C@H](CCC(=O)O)NC(=O)[C@H](Cc1ccc(O)cc1)NC(=O)[C@H](CCC(=O)O)NC(=O)[C@H](CC(C)C)NC(=O)[C@H](CC(=O)O)NC(=O)[C@H](CC(C)C)NC(=O)[C@H](Cc1ccccc1)NC(=O)[C@@H](NC(=O)[C@@H](NC(=O)[C@H](CC(N)=O)NC(=O)[C@@H](NC(=O)[C@H](CCC(N)=O)NC(=O)[C@H](CC(=O)O)NC(=O)[C@H](CC(C)C)NC(=O)[C@@H](N)CO)[C@@H](C)CC)C(C)C)[C@@H](C)O)C(=O)N[C@@H](CCCCN)C(=O)N[C@@H](CCCCN)C(=O)N[C@@H](CC(C)C)C(=O)N[C@@H](CCC(=O)O)C(=O)N[C@@H](CCC(=O)O)C(=O)N[C@@H](CO)C(=O)N[C@@H](Cc1ccc(O)cc1)C(=O)N[C@H](C(=O)N[C@@H](CC(=O)O)C(=O)N[C@@H](CC(C)C)C(=O)N[C@@H](CCCCN)C(=O)N[C@@H](CCC(=O)O)C(=O)N[C@@H](CC(C)C)C(=O)O)[C@@H](C)CC | SARS-CoV-2 JN.1 pseudovirus | pseudovirus infection, inhibitor, luciferase | Caco-2 | 24 h | – | IC50 | 129 nM |
| O=C(O)C(O)=CC(=O)c1ccc2cc(O)c(O)cc2c1 | Lymphocytic choriomeningitis mammarenavirus | minigenome reporter gene | – | 50 µM | baseline: DMSO | remaining activity | 110% |
| COc1ccc(S(=O)(=O)Nc2cccc(C(=O)NC3CCN(c4ncnc5[nH]cnc45)CC3)c2)cc1 | SARS-CoV-2 | – | Wuhan-Hu-1 | 0.2743 µM | baseline: untreated infected cells | relative infection | 59.2% |
| CCOP(=O)(OCC)ON1C(=O)c2cccc3cccc(c23)C1=O | Ache (Rattus norvegicus, UniProt P37136) | enzyme activity, inhibitor, discontinuous Ellman | rat, postnatal day 70, rat heart homogenate | 15 min, 37 °C | – | IC50 | 4 nM |
| CS(=O)(=O)C=CCNC(=O)c1ccc2[nH]c(=O)n(C3CC3)c2c1 | Venezuelan equine encephalitis virus | viral replication, nanoluciferase reporter | TC83-nLuc-nsP3 | – | – | IC50 | > 10000 nM |
| CC[C@H](C)[C@H](NC(=O)[C@H](C)NC(=O)[C@H](CCC(=O)O)NC(=O)[C@H](CCC(=O)O)NC(=O)[C@H](CC(C)C)NC(=O)[C@H](CCCCN)NC(=O)[C@H](CCCCN)NC(=O)[C@H](CCSC)NC(=O)[C@H](CCC(=O)O)NC(=O)[C@H](Cc1ccc(O)cc1)NC(=O)[C@H](CCC(=O)O)NC(=O)[C@H](CC(C)C)NC(=O)[C@H](CC(=O)O)NC(=O)[C@H](CC(C)C)NC(=O)[C@H](Cc1ccccc1)NC(=O)[C@H](Cc1ccc(O)cc1)NC(=O)[C@@H](NC(=O)[C@H](CC(N)=O)NC(=O)[C@@H](NC(=O)[C@H](CCC(N)=O)NC(=O)[C@H](CC(=O)O)NC(=O)[C@H](CC(C)C)NC(=O)[C@@H](N)CO)[C@@H](C)CC)C(C)C)C(=O)N[C@@H](CCCCN)C(=O)N[C@@H](CCCCN)C(=O)N[C@@H](CC(C)C)C(=O)N[C@@H](CCC(=O)O)C(=O)N[C@@H](CCC(=O)O)C(=O)N[C@@H](C)C(=O)N[C@@H](Cc1ccc(O)cc1)C(=O)N[C@H](C(=O)N[C@@H](CC(=O)O)C(=O)N[C@@H](CC(C)C)C(=O)N[C@@H](CCCCN)C(=O)N[C@@H](CCC(=O)O)C(=O)N[C@@H](CC(C)C)C(=O)O)[C@@H](C)CC | SARS-CoV-2 XBB.1.5 pseudovirus | pseudovirus infection, inhibitor, luciferase | Caco-2 | 24 h, dual mutations | – | IC50 | 49.6 nM |
| O=C(NC1CCN(c2ncnc3[nH]cnc23)CC1)c1cccc(NS(=O)(=O)c2ccc([N+](=O)[O-])cc2)c1 | SARS-CoV-2 | – | Wuhan-Hu-1 | 66.67 µM | baseline: untreated infected cells | relative infection | 17.2% |
| CC[C@H](C)[C@H](NC(=O)[C@H](C)NC(=O)[C@H](CCC(=O)O)NC(=O)[C@H](CCC(=O)O)NC(=O)[C@H](CC(C)C)NC(=O)[C@H](CCCCN)NC(=O)[C@H](CCCCN)NC(=O)[C@H](CCSC)NC(=O)[C@H](CCC(=O)O)NC(=O)[C@H](Cc1ccc(O)cc1)NC(=O)[C@H](CCC(=O)O)NC(=O)[C@H](CC(C)C)NC(=O)[C@H](CC(=O)O)NC(=O)[C@H](CC(C)C)NC(=O)[C@H](Cc1ccccc1)NC(=O)[C@H](Cc1ccccc1)NC(=O)[C@@H](NC(=O)[C@H](CC(N)=O)NC(=O)[C@@H](NC(=O)[C@H](CCC(N)=O)NC(=O)[C@H](CC(=O)O)NC(=O)[C@H](CC(C)C)NC(=O)[C@@H](N)CO)[C@@H](C)CC)C(C)C)C(=O)N[C@@H](CCCCN)C(=O)N[C@@H](CCCCN)C(=O)N[C@@H](CC(C)C)C(=O)N[C@@H](CCC(=O)O)C(=O)N[C@@H](CCC(=O)O)C(=O)N[C@@H](CO)C(=O)N[C@@H](Cc1ccc(O)cc1)C(=O)N[C@H](C(=O)N[C@@H](CC(=O)O)C(=O)N[C@@H](CC(C)C)C(=O)N[C@@H](CCCCN)C(=O)N[C@@H](CCC(=O)O)C(=O)N[C@@H](CC(C)C)C(=O)O)[C@@H](C)CC | SARS-CoV-2 XBB.1.5 pseudovirus | pseudovirus infection, inhibitor, luciferase | Caco-2 | 24 h | – | IC50 | 103 nM |
| CC(C)[C@H]1CC[C@@H](N2CCC3(CC2)C(=O)NCN3c2ccccc2)CC1 | OPRL1 | G protein interaction, BRET | HEK293 membranes | – | baseline: N/OFQ | fold lower potency | 28 fold |
| O=C(Nc1ccc2c(c1)C(=O)N(O)C(=O)C2C(=O)NCc1ccc(F)cc1)c1ccccc1 (stereo not drawn) | Lymphocytic choriomeningitis mammarenavirus | minigenome reporter gene | – | 100 µM | baseline: DMSO | remaining activity | 62.5% |
| O=C1Cc2ccccc2N1C1CCN([C@@H]2CC[C@H]3CCCc4cccc2c43)CC1 | OPRL1 | G protein activation, GTPγS binding | CHO membranes | concentration not given, unit not given | baseline: compound over N/OFQ Emax | intrinsic activity | 0.95 |
| Cc1ccccc1S(=O)(=O)Nc1cccc(C(=O)NC2CCN(c3ncnc4[nH]cnc34)CC2)c1 | SARS-CoV-2 | – | Wuhan-Hu-1 | 200 µM | baseline: untreated infected cells | relative infection | 19.3% |
